{"data": "Published values pooled from the literature", "note": "Parts stem from different laboratories: compare values within a part only. “And” joins repeats or separate records; there may be more than shown.", "chain of UniProt Q8WU08 (whole entry, looked up)": "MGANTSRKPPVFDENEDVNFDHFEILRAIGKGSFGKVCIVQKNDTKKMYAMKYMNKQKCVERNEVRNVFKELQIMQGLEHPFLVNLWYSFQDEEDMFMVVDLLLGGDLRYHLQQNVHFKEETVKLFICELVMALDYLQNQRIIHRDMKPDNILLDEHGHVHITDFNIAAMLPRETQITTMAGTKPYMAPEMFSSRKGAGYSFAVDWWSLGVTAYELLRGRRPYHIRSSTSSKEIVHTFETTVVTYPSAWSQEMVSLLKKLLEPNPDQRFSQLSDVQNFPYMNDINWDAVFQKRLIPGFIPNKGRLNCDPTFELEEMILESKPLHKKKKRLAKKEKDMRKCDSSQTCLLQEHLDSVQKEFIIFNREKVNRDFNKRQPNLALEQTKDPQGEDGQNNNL", "chain of UniProt Q96GD4 (whole entry, looked up)": "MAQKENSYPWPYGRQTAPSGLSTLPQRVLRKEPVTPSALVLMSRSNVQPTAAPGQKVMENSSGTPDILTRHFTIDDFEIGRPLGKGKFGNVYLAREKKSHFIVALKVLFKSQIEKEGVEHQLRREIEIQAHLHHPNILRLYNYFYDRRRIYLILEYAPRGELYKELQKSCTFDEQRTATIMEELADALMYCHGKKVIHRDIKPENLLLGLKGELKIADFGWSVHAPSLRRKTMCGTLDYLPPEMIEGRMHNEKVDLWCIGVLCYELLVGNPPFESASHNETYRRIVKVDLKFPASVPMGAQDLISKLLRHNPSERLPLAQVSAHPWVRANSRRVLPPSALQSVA", "chain of UniProt P49674 (whole entry, looked up)": "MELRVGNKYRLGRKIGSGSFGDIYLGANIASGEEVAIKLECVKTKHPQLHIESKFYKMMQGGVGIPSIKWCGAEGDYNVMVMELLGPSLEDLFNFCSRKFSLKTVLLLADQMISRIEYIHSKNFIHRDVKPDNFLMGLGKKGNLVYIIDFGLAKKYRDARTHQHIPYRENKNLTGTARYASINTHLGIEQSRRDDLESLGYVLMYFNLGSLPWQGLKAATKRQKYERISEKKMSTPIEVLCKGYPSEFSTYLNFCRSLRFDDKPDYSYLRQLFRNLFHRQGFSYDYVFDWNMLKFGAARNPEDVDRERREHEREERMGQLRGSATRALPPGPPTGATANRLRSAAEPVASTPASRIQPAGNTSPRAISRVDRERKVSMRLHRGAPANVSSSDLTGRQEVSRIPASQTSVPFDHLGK", "chain of UniProt P51812 (whole entry, looked up)": "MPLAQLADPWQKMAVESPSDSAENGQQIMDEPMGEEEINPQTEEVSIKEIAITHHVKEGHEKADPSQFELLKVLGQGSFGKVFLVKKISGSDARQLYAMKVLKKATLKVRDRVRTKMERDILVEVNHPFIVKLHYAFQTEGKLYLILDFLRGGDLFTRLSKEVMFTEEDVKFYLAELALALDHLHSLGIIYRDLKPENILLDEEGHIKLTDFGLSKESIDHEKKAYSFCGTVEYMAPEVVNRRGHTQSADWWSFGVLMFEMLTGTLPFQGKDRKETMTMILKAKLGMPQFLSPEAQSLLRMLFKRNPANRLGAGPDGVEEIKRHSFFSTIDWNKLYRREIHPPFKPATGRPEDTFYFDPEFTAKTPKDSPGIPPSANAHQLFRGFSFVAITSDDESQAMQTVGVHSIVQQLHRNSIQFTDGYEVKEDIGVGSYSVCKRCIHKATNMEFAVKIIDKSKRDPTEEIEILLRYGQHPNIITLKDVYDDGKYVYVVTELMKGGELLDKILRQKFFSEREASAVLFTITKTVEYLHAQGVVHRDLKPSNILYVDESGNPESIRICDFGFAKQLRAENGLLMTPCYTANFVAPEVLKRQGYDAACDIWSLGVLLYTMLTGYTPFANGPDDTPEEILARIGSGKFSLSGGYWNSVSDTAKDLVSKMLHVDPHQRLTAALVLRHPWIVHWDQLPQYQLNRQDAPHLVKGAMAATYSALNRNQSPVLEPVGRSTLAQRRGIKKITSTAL", "chain of UniProt P07948 (whole entry, looked up)": "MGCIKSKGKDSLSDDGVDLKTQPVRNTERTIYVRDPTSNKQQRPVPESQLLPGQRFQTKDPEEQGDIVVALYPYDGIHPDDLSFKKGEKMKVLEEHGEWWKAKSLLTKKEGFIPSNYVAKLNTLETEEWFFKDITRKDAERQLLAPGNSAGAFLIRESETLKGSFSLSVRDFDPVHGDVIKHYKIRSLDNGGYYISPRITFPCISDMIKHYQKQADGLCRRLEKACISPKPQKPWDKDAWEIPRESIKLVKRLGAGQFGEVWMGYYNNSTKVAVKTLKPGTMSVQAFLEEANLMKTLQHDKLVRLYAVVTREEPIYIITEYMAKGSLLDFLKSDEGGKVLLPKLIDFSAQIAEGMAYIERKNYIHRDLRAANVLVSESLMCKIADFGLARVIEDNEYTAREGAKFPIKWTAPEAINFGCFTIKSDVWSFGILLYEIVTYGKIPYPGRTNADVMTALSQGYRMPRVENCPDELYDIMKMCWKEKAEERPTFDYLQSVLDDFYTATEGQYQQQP", "chain of UniProt Q96Q40 (whole entry, looked up)": "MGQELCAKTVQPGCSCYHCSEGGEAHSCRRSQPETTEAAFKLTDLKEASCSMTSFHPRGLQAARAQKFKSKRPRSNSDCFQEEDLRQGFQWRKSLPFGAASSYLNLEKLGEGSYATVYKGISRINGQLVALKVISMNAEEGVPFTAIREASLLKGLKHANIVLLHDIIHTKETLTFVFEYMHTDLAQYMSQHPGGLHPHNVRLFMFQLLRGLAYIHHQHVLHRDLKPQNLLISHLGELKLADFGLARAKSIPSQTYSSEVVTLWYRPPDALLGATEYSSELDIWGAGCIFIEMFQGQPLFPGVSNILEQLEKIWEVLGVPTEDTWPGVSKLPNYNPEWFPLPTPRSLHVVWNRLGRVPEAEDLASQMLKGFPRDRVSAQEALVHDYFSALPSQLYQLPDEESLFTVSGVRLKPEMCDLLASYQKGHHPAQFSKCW", "chain of UniProt O14976 (whole entry, looked up)": "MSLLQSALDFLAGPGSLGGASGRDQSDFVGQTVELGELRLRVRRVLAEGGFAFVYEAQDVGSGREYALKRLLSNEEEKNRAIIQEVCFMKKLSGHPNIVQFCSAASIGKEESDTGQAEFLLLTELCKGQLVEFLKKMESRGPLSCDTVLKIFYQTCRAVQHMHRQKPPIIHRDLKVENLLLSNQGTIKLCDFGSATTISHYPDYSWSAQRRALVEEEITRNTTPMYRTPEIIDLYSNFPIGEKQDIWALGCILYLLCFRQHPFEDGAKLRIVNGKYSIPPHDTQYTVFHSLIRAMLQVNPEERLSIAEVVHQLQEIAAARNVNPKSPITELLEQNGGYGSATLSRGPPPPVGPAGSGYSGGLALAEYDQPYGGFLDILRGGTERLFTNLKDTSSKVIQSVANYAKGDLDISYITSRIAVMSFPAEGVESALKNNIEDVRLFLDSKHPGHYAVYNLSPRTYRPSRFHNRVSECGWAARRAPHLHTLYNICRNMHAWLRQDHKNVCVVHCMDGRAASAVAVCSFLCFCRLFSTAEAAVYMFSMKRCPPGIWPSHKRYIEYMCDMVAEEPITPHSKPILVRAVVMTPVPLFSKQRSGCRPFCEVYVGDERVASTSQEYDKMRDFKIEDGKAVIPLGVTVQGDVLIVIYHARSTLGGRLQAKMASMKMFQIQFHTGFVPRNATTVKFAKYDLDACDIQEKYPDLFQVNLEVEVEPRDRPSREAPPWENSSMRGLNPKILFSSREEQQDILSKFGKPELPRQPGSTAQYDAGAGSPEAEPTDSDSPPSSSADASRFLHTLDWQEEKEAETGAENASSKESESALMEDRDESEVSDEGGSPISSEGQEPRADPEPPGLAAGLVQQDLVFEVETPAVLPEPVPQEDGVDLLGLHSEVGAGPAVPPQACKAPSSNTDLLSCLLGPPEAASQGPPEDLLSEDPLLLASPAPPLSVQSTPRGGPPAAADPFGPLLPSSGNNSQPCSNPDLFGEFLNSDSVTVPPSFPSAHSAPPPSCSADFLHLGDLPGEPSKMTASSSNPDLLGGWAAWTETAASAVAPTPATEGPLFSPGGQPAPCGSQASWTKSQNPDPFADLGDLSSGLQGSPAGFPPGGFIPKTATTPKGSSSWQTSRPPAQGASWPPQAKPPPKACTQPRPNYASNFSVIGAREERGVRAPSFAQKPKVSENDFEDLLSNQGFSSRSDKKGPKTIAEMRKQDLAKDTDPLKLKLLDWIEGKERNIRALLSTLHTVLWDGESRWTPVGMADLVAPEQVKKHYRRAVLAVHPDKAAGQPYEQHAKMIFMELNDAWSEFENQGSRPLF", "chain of UniProt Q9HC98 (whole entry, looked up)": "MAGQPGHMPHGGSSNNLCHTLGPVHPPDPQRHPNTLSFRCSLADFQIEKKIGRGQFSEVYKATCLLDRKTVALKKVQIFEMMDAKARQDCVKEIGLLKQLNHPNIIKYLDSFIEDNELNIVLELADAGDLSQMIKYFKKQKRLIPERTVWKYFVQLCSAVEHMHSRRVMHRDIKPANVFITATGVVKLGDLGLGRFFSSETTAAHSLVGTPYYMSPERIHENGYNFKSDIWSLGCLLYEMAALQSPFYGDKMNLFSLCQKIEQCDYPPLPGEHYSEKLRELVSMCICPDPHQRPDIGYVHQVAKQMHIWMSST"}
{"data": "Block 1", "target": "Protein-tyrosine kinase 6 (PTK6, Homo sapiens, UniProt Q13882)", "effect on": "enzyme activity", "mode": "inhibitor", "tested at": "0.5 µM", "reference": "control", "chain of UniProt Q13882 (whole entry, looked up)": "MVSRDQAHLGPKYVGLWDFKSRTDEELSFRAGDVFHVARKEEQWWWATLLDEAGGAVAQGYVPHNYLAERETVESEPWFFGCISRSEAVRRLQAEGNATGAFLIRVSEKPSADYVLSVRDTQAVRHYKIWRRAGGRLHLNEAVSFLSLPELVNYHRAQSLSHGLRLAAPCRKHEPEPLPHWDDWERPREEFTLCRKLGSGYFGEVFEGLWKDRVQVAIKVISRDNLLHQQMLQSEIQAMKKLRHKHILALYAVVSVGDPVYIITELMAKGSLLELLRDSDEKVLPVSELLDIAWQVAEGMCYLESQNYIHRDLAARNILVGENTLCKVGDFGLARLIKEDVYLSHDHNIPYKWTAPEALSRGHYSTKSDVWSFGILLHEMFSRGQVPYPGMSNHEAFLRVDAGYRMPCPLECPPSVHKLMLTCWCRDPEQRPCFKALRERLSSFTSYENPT"}
{"Structure (SMILES)": "COc1ccc(COc2ccc(Cc3cnc(N)nc3N)cc2OC)cc1", "remaining activity [%]": 96.1}
{"Structure (SMILES)": "N#Cc1cnc2cnc(NCc3cccnc3)cc2c1Nc1ccc(F)c(Cl)c1", "remaining activity [%]": 84.1}
{"Structure (SMILES)": "O=C1Cc2c([nH]c3ccc(Br)cc23)-c2ccccc2N1", "remaining activity [%]": 87.7}
{"Structure (SMILES)": "CN1CCN(c2ccc3nc(-c4c(N)c5c(F)cccc5[nH]c4=O)[nH]c3c2)CC1", "remaining activity [%]": 96.4}
{"Structure (SMILES)": "O=c1cc(N2CCOCC2)oc2c(-c3ccccc3)cccc12", "remaining activity [%]": 96}
{"Structure (SMILES)": "Oc1cccc(-c2nc(N3CCOCC3)c3oc4ncccc4c3n2)c1", "remaining activity [%]": 80.8}
{"Structure (SMILES)": "O=C1Nc2ccc(Br)cc2/C1=C/c1cc2c([nH]1)CCCC2", "remaining activity [%]": 82.3}
{"Structure (SMILES)": "CCCCc1c(-c2ccc(OC)cc2)[nH]c2nccnc12", "remaining activity [%]": 30.4}
{"Structure (SMILES)": "COc1cccc(-c2cc(=O)c3ccccc3o2)c1N", "remaining activity [%]": 92.6}
{"Structure (SMILES)": "O=Nc1c(-c2c(O)[nH]c3cc(Br)ccc23)[nH]c2ccccc12", "remaining activity [%]": 89.3}
{"Structure (SMILES)": "CCCNC(=O)Nc1ccc(Oc2ncnc3cc(OC)c(OC)cc23)cc1Cl", "remaining activity [%]": 48.3}
{"Structure (SMILES)": "O=C1NC(=O)c2c1c1c3ccccc3[nH]c1c1[nH]c3cc(Br)ccc3c21", "remaining activity [%]": 92.7}
{"Structure (SMILES)": "COc1ccc2c(c1)c(C1=C(c3c[nH]c4ccccc34)C(=O)NC1=O)cn2CCCN(C)C", "remaining activity [%]": 92}
{"Structure (SMILES)": "Cc1ccc(S(=O)(=O)/C=C/C#N)cc1", "remaining activity [%]": 93.1}
{"Structure (SMILES)": "Cc1cc(Nc2cc(N3CCN(C)CC3)nc(Sc3ccc(NC(=O)C4CC4)cc3)n2)[nH]n1", "remaining activity [%]": 94.6}
{"Structure (SMILES)": "O=C1NC(=O)c2c1c1c3ccccc3[nH]c1n1cncc21", "remaining activity [%]": 89}
{"Structure (SMILES)": "O=C1Nc2ccccc2/C1=C\\c1c(Cl)[nH]c2ccccc12", "remaining activity [%]": 76.9}
{"Structure (SMILES)": "CN(C)S(=O)(=O)c1ccc2c(c1)/C(=C/c1cc3c([nH]1)CCCC3)C(=O)N2", "remaining activity [%]": 56.3}
{"Structure (SMILES)": "c1ccc2c(-c3ccncc3)c[nH]c2c1", "remaining activity [%]": 85.5}
{"Structure (SMILES)": "O=C(c1cc2cc(O)ccc2[nH]1)c1cc2cc(O)ccc2[nH]1", "remaining activity [%]": 91.9}
{"data": "Block 2", "Compound": "Cc1noc([C@H]2C[C@@H](c3ccc(C(F)(F)F)cc3)CN(C(=O)N3CCS(=O)(=O)C3)C2)n1", "method": "competition with immobilised ligand", "tested at": "1 µM"}
{"target": "Ribosomal protein S6 kinase alpha-3, C-terminal kinase domain (RPS6KA3, Homo sapiens, UniProt P51812)", "test": "cell-free assay", "remaining binding": "100%"}
{"target": "Aurora kinase B (AURKB, Homo sapiens, UniProt Q96GD4)", "test": "cell-free assay", "remaining binding": "100%"}
{"target": "NEK6 (Homo sapiens, UniProt Q9HC98)", "test": "cell-free assay", "remaining binding": "100%"}
{"target": "CAMK2D (Homo sapiens, UniProt Q13557)", "test": "cell-free assay", "remaining binding": "100%"}
{"target": "PIK3C3 (Homo sapiens, UniProt Q8NEB9)", "test": "cell-free assay", "remaining binding": "90%"}
{"target": "CDKL2 (Homo sapiens, UniProt Q92772)", "test": "binding", "remaining binding": "100%"}
{"target": "LYN (Homo sapiens, UniProt P07948)", "test": "cell-free assay", "remaining binding": "100%"}
{"target": "ROCK2 (Homo sapiens, UniProt O75116)", "test": "cell-free assay", "remaining binding": "100%"}
{"target": "Myosin-IIIa (MYO3A, Homo sapiens, UniProt Q8NEV4)", "test": "binding", "remaining binding": "100%"}
{"target": "DSTYK (Homo sapiens, UniProt Q6XUX3)", "test": "cell-free assay", "remaining binding": "94%"}
{"target": "BLK (Homo sapiens, UniProt P51451)", "test": "cell-free assay", "remaining binding": "100%"}
{"target": "STK32A (Homo sapiens, UniProt Q8WU08)", "test": "cell-free assay", "remaining binding": "100%"}
{"target": "FLT3 (Homo sapiens, UniProt P36888, ITD)", "test": "cell-free assay", "remaining binding": "100%"}
{"target": "IRAK3 (Homo sapiens, UniProt Q9Y616)", "test": "cell-free assay", "remaining binding": "100%"}
{"target": "FLT3 (Homo sapiens, UniProt P36888, K663Q)", "test": "cell-free assay", "remaining binding": "100%"}
{"target": "GAK (Homo sapiens, UniProt O14976)", "test": "cell-free assay", "remaining binding": "97%"}
{"target": "MKNK1 (Homo sapiens, UniProt Q9BUB5)", "test": "cell-free assay", "remaining binding": "99%"}
{"target": "WNK4 (Homo sapiens, UniProt Q96J92)", "test": "cell-free assay", "remaining binding": "100%"}
{"target": "Tyrosine-protein kinase ABL1, phosphorylated (ABL1, Homo sapiens, UniProt P00519)", "test": "cell-free assay", "remaining binding": "100%"}
{"target": "ACVR2A (Homo sapiens, UniProt P27037)", "test": "cell-free assay", "remaining binding": "100%"}
{"target": "CDK15 (Homo sapiens, UniProt Q96Q40)", "test": "cell-free assay", "remaining binding": "100%"}
{"target": "CSNK1E (Homo sapiens, UniProt P49674)", "test": "cell-free assay", "remaining binding": "100%"}
{"target": "STK39 (Homo sapiens, UniProt Q9UEW8)", "test": "cell-free assay", "remaining binding": "95%"}
{"target": "CDK2 (Homo sapiens, UniProt P24941)", "test": "cell-free assay", "remaining binding": "100%"}
{"target": "Myosin-IIIb (MYO3B, Homo sapiens, UniProt Q8WXR4)", "test": "binding", "remaining binding": "100%"}
{"data": "Block 3", "SMILES": "CC(C)(C(=O)O)[C@H](NC(=O)Cc1cccc(I)c1)c1ccc2oc(=O)[nH]c2c1", "method": "Incucyte 3D growth", "tested at": "30 µM", "reading": "higher = more growth"}
{"cell line": "A375", "setting": "6.52 h", "spheroid area": "9.8e+06 a.u. and 9.79e+06 a.u. and 1.07e+07 a.u. and 9.38e+06 a.u. and 7.95e+06 a.u. and 1.02e+07 a.u."}
{"cell line": "IPC-298", "setting": "234 h", "spheroid area": "2.8e+07 a.u. and 4.62e+07 a.u. and 2.89e+07 a.u. and 3.8e+07 a.u. and 3.22e+07 a.u. and 3.21e+07 a.u."}
{"cell line": "A375", "setting": "312.52 h", "spheroid area": "2e+08 a.u. and 1.75e+08 a.u. and 1.7e+08 a.u. and 1.78e+08 a.u. and 1.76e+08 a.u. and 1.95e+08 a.u."}
{"cell line": "A375", "setting": "408.52 h", "spheroid area": "1.76e+08 a.u. and 1.82e+08 a.u. and 1.54e+08 a.u. and 1.63e+08 a.u. and 1.74e+08 a.u."}
{"cell line": "MEL-JUSO", "setting": "396.52 h", "spheroid area": "4.05e+07 a.u. and 3.31e+07 a.u. and 3.48e+07 a.u. and 4.09e+07 a.u. and 7.09e+07 a.u."}
{"cell line": "KP-4", "setting": "270 h", "spheroid area": "4.66e+07 a.u. and 6.63e+07 a.u. and 9.51e+07 a.u. and 2.72e+07 a.u. and 6.59e+07 a.u. and 9.28e+07 a.u."}
{"cell line": "MEL-JUSO", "setting": "444.52 h", "spheroid area": "7.68e+07 a.u. and 2.54e+07 a.u. and 3.23e+07 a.u. and 2.85e+07 a.u. and 5.13e+07 a.u. and 2.62e+07 a.u."}
{"cell line": "MEL-JUSO", "setting": "186.52 h", "spheroid area": "1.61e+07 a.u. and 1.53e+07 a.u. and 2.12e+07 a.u. and 2.03e+07 a.u. and 1.39e+07 a.u. and 1.75e+07 a.u."}
{"cell line": "A375", "setting": "366.52 h", "spheroid area": "1.91e+08 a.u. and 1.63e+08 a.u. and 1.7e+08 a.u. and 1.84e+08 a.u. and 1.72e+08 a.u."}
{"cell line": "A375", "setting": "228 h", "spheroid area": "1.28e+08 a.u. and 1.14e+08 a.u. and 1.33e+08 a.u. and 1.31e+08 a.u. and 1.52e+08 a.u. and 1.29e+08 a.u."}
{"cell line": "NCI-H1437", "setting": "198 h", "spheroid area": "8.07e+07 a.u. and 4.13e+07 a.u. and 4.73e+07 a.u. and 5.93e+07 a.u. and 6.6e+07 a.u. and 3.4e+07 a.u."}
{"cell line": "IPC-298", "setting": "48 h", "spheroid area": "2.66e+07 a.u. and 2.14e+07 a.u. and 2.87e+07 a.u. and 2.84e+07 a.u. and 2.48e+07 a.u. and 3.07e+07 a.u."}
{"data": "Block 4", "host": "human", "sample": "microsomes or S9", "tested at": "2 µM", "time": "0.5 h"}
{"SMILES": "COCCN(C(C)=O)c1nc(C)c(C(=O)Nc2nnc(C(C)C)s2)s1", "remaining compound [%]": 91}
{"SMILES": "CC(C)c1cc(C(C)C)c(S(=O)(=O)NCc2ccc(S(N)(=O)=O)cc2)c(C(C)C)c1", "remaining compound [%]": 1.18}
{"SMILES": "OC1CCC(Nc2nc(-c3ccncc3)nc3c2CCC3)CC1 (stereo not shown)", "remaining compound [%]": 73.9}
{"SMILES": "CC1CN(C(=O)C2CCC2)C(C)CN1C(=O)C1CCC1 (stereo not shown)", "remaining compound [%]": 74.7}
{"SMILES": "CCCC(=O)Nc1cc(C(=O)NC2CCCCC2)ccc1S(=O)(=O)c1ccc(Cl)cc1", "remaining compound [%]": 52.3}
{"SMILES": "Cc1cccc(NC(=O)C2ON=CC2C(=O)N2CCOCC2)c1 (stereo not shown)", "remaining compound [%]": 97}
{"SMILES": "COc1ccc([C@@H](C)NC(=O)COc2c(C)ccc(C)c2C)cc1", "remaining compound [%]": 0.881}
{"SMILES": "CCOc1ccc(OCC)c(NC(=O)c2cc3c(Cl)ccc4c3n2CCO4)c1", "remaining compound [%]": 52.9}
{"SMILES": "COC[C@@H]1[C@H](NC(=O)CCN2CCCO2)[C@@H]2CCO[C@H]12", "remaining compound [%]": 67.6}
{"SMILES": "CCCn1c(=O)c2c(nc3n2C(C)C(C)=NN3CCCO)n(C)c1=O (stereo not shown)", "remaining compound [%]": 9.67}
{"note": "Some of these lines once more (block 2):"}
{"target": "LYN (Homo sapiens, UniProt P07948)", "test": "cell-free assay", "remaining binding": "100%"}
{"target": "ROCK2 (Homo sapiens, UniProt O75116)", "test": "cell-free assay", "remaining binding": "100%"}
{"target": "Myosin-IIIa (MYO3A, Homo sapiens, UniProt Q8NEV4)", "test": "binding", "remaining binding": "100%"}
{"target": "DSTYK (Homo sapiens, UniProt Q6XUX3)", "test": "cell-free assay", "remaining binding": "94%"}
{"target": "BLK (Homo sapiens, UniProt P51451)", "test": "cell-free assay", "remaining binding": "100%"}
{"target": "STK32A (Homo sapiens, UniProt Q8WU08)", "test": "cell-free assay", "remaining binding": "100%"}
{"target": "FLT3 (Homo sapiens, UniProt P36888, ITD)", "test": "cell-free assay", "remaining binding": "100%"}
